Measured values collected from several papers.
± marks the error that the study gave. Values after ≈ are worked out from the molar mass of the structure shown. Where no end group is shown, it is not given here.

Molecule	organism	test	system	setting	how to read	quantity	value
insulin human	EcoHIV	qPCR	infected mice, brain	intranasal, dose not given, 1 month after infection	–	HIV DNA reduction	> 90%
CCCCCCOc1c(OC)cc(NC(C)CCCNC(=O)C(N)CCCCN)c2nc(C(C)(C)C)ccc12 (stereo not drawn)	Staphylococcus aureus	–	MRSA ATCC 33591	–	–	MBC	> 20 µg/mL
CC=Cc1ccc(OC(=O)c2ccc([N+](=O)[O-])cc2)c(OC)c1	Spodoptera frugiperda	insecticidal activity	larvae	topical	–	LD50	2020 mg/kg
CC(=O)OC[C@]12Oc3ccc(-c4ccc5c(c4O)C(=O)C4=C(O)C[C@@H](C)[C@@H](OC(C)=O)[C@@]4(COC(C)=O)O5)c(O)c3C(=O)C1=C(O)C[C@@H](C)[C@H]2OC(C)=O	Phyllosticta citricarpa	–	Citrus sinensis leaf discs	10000 µg/mL, 504 h, methanol solution	–	pycnidia count	187 ± 9
STFFRLFNRSFTQGRRRRSVQWCA	Streptococcus gordonii	OD600	peptide, ATCC 10558, 4 h single-species biofilm	128 µg/ml, 5 min exposure, OD600 read over 5 h	–	biofilm growth	no effect
Cc1ccccc1-c1nc(CN2CCC(C(=O)NCc3cccnc3)CC2)c(C)o1	Hepatitis C virus	HCV infection, Gaussia luciferase reporter	Huh7.5.1 reporter cells	–	baseline: 10 µM cyclosporin A, DMSO, negative means inhibition	maximal response	-42.7%
CCOC(=O)[C@]1(CS)N[C@@H](C(=O)O)C(C)(C)S1	Proteus mirabilis	broth microdilution	clinical isolate	compound at 100 mg/L, added: meropenem	–	MIC	8 µg/mL (≈ 28.6 µM)
CC(=O)N(O)CCCCCNC(=O)CCC(=O)N(O)CCCCCNC(=O)CCC(=O)N(O)CCCCCN	Cryptococcus neoformans	microbial growth	–	–	–	MIC80	> 200 µM
CP(=O)(O)CCC(N)C(=O)O (stereo not drawn)	Amaranthus palmeri	–	–	500 g/ha, 13 days, AMAPA, post-emergence spray	baseline: untreated (0%), complete kill (100%)	herbicidal activity	100%
CC(=NNC(=O)CN1c2c(-c3ccccc3)n[nH]c2-c2ccccc2S1(=O)=O)c1ccc(C)s1	HIV-1	viral replication	PBMC	–	–	EC90	> 100 µM
CCCCCCOc1c(OC)cc(NC(C)CCCNC(=O)C(N)Cc2cnc[nH]2)c2nc(C(C)(C)C)ccc12 (stereo not drawn)	Staphylococcus aureus	microbial growth	ATCC33591 MRSA	drug-resistant strain	–	IC50	4.42 µg/mL (≈ 8 µM)
O=C(CN1c2c(n[nH]c2-c2cccc(Cl)c2)-c2ccccc2S1(=O)=O)NN=Cc1ccc(C(=O)O)cc1	HIV-1	viral replication	PBMC	–	–	EC90	23 µM
CCCCCCOc1c(OC)cc(NC(C)CCCNC(=O)C(N)CCCNC(=N)N)c2nc(C(C)(C)C)ccc12 (stereo not drawn)	Staphylococcus aureus	microbial killing	ATCC33591 MRSA	drug-resistant strain	–	MBC	> 20 µg/mL
C[C@H]1c2cccc(O)c2C(=O)C2=C(O)[C@]3(O)C(=O)C(C(N)=O)=C(O)[C@@H](N(C)C)[C@@H]3[C@@H](O)[C@@H]21	Borreliella garinii	in vitro BBB model crossing	–	0.11 µg/mL, 5 h, added: 4.1 µM peptide	–	survival	24.9%
Cc1ccccc1-c1nc(CN2CCC(C(=O)NCCN3CCOCC3)CC2)c(C)o1	Hepatitis C virus	HCV infection, Gaussia luciferase reporter	Huh7.5.1 reporter cells	–	baseline: 10 µM cyclosporin A, DMSO, negative means inhibition	maximal response	-27.8%
CCCCCCOc1c(OC)cc(NC(C)CCCN)c2nc(C(C)(C)C)ccc12 (stereo not drawn)	Staphylococcus aureus	microbial killing	ATCC33591 MRSA	drug-resistant strain	–	MBC	10 µg/mL (≈ 24.1 µM)
CC(C)C[C@H](NC(=O)[C@H](C)NC(=O)[C@H](CCCCN)NC(=O)[C@H](C)NC(=O)[C@H](CC(C)C)NC(=O)[C@H](CCCCN)NC(=O)[C@H](CC(C)C)NC(=O)[C@H](Cc1c[nH]c2ccccc12)NC(=O)[C@H](CC(C)C)NC(=O)[C@@H]1CCCN1C(=O)[C@H](C)NC(=O)[C@H](CC(C)C)NC(=O)[C@H](CC(C)C)NC(=O)[C@H](CCCCN)NC(=O)[C@H](CC(C)C)NC(=O)[C@H](C)NC(=O)[C@H](CCCCN)NC(=O)[C@H](C)NC(=O)[C@H](CC(C)C)NC(=O)[C@H](CCCCN)NC(=O)[C@@H](N)CCCCN)C(=O)N[C@@H](CCCCN)C(=O)N[C@@H](CCCCN)C(=O)N[C@@H](C)C(N)=O	Pseudomonas aeruginosa	broth microdilution	PAO1	overnight, 37 °C	–	MIC50	0.86 ± 0.09 µM (≈ 2.29 µg/mL)
TRTRVSRLY	rhesus rotavirus	–	peptide, mouse cholangiocytes	0.5 mM, 18 h, 37 °C	baseline: medium control	viral yield	70%
LSTFFRLFNRSFTQGRRRRSVQWCA	Streptococcus sanguis	OD600	peptide, ATCC 49295, 4 h single-species biofilm	128 µg/ml, 5 min exposure, OD600 read over 5 h	–	biofilm growth	no effect
CC(=O)c1c(O)c(C)c(O)c2c1OC1=CC(=O)C(=C(C)N[C@@H](CCCNC(=N)N)C(=O)O)C(=O)[C@@]12C	Candida tropicalis	broth microdilution	ATCC 750 fluconazole and amphotericin B resistant	24 and 48 h	–	MIC99	12 µM (≈ 6.01 µg/mL)
CCCCCCCCOc1c(OC)cc(NC(C)CCCNC(=O)C(N)CCSC)c2nc(C(C)(C)C)ccc12 (stereo not drawn)	Staphylococcus aureus	microbial killing	ATCC33591 MRSA	drug-resistant strain	–	MBC	20 µg/mL (≈ 34.8 µM)
ADVDHVFLRF-NH2 (C-amide)	Drosophila melanogaster	heart rate	adult heart	40 nL injected, 1 µM, 10 min	baseline: DMS	inhibition	108%
SSASAW	rhesus rotavirus	–	peptide, newborn BALB/c mice, RRV biliary atresia	intraperitoneal, 500 µg at birth and days 1 and 2, 21 days	–	mice with biliary atresia symptoms	100%
VDHVFLRF-NH2 (C-amide)	Drosophila melanogaster	heart rate	wandering third instar larval heart	40 nL injected, 1 µM, 10 min	baseline: DMS	inhibition	223%
CC(=NNC(=O)CN1c2c(-c3ccccc3)n[nH]c2-c2ccccc2S1(=O)=O)c1cc2ccccc2o1	HIV-1	viral replication	PBMC	–	–	EC90	> 100 µM
OCCn1c(Cl)nc2cc(Br)c(Br)cc21	Human immunodeficiency virus 1	viral replication, inhibitor	TZM-bl	5 µg/mL	–	inhibition	88.5%
CCCCCCOc1c(OC)cc(NC(C)CCCNC(=O)C(N)C(C)CC)c2nc(C(C)(C)C)ccc12 (stereo not drawn)	Staphylococcus aureus	microbial killing	ATCC33591 MRSA	drug-resistant strain	–	MBC	> 20 µg/mL
TDVDHVFLRF-OH (C-acid)	Drosophila melanogaster	gut contraction	peptide, wandering third instar larval gut	injection, 1 µM, within 10 min	baseline: DMS effect	inhibition	19%
CCCCCCCOc1c(OC)cc(NC(C)CCCN)c2nc(C(C)(C)C)cc(C)c12 (stereo not drawn)	Staphylococcus aureus	microbial killing	ATCC33591 MRSA	drug-resistant strain	–	MBC	5 µg/mL (≈ 11.3 µM)
CC[C@H](C)[C@H](NC(=O)[C@H](CCCCN)NC(=O)[C@H](CCC(=O)O)NC(=O)[C@H](CCCCN)NC(=O)[C@H](CO)NC(=O)[C@H](CCCCN)NC(=O)[C@H](CCCNC(=N)N)NC(=O)[C@H](Cc1ccccc1)NC(=O)[C@H](Cc1ccccc1)NC(=O)[C@H](CC(=O)O)NC(=O)CNC(=O)[C@H](CC(C)C)NC(=O)[C@@H](N)CC(C)C)C(=O)NCC(=O)N[C@@H](CCCCN)C(=O)N[C@@H](CCC(=O)O)C(=O)N[C@@H](Cc1ccccc1)C(=O)N[C@@H](CCCCN)C(=O)N[C@@H](CCCNC(=N)N)C(=O)N[C@H](C(=O)N[C@H](C(=O)N[C@@H](CCC(N)=O)C(=O)N[C@@H](CCCNC(=N)N)C(=O)N[C@H](C(=O)N[C@@H](CCCCN)C(=O)N[C@@H](CC(=O)O)C(=O)N[C@@H](Cc1ccccc1)C(=O)N[C@@H](CC(C)C)C(=O)N[C@@H](CCCNC(=N)N)C(=O)N[C@@H](CC(N)=O)C(=O)N[C@@H](CC(C)C)C(=O)N[C@H](C(=O)N1CCC[C@H]1C(=O)N[C@@H](CCCNC(=N)N)C(=O)N[C@H](C(=O)N[C@@H](CCC(=O)O)C(=O)N[C@@H](CO)C(=O)O)[C@@H](C)O)C(C)C)[C@@H](C)CC)C(C)C)[C@@H](C)CC	Staphylococcus aureus	–	JE2 SAUSA300_0988 trkA transposon mutant	12.5% TSB	baseline: wild type over mutant	MIC ratio	2 fold

A few entries again:
Molecule	organism	test	system	setting	how to read	quantity	value
CC(=NNC(=O)CN1c2c(-c3ccccc3)n[nH]c2-c2ccccc2S1(=O)=O)c1cc2ccccc2o1	HIV-1	viral replication	PBMC	–	–	EC90	> 100 µM
OCCn1c(Cl)nc2cc(Br)c(Br)cc21	Human immunodeficiency virus 1	viral replication, inhibitor	TZM-bl	5 µg/mL	–	inhibition	88.5%
CCCCCCOc1c(OC)cc(NC(C)CCCNC(=O)C(N)C(C)CC)c2nc(C(C)(C)C)ccc12 (stereo not drawn)	Staphylococcus aureus	microbial killing	ATCC33591 MRSA	drug-resistant strain	–	MBC	> 20 µg/mL
TDVDHVFLRF-OH (C-acid)	Drosophila melanogaster	gut contraction	peptide, wandering third instar larval gut	injection, 1 µM, within 10 min	baseline: DMS effect	inhibition	19%
CCCCCCCOc1c(OC)cc(NC(C)CCCN)c2nc(C(C)(C)C)cc(C)c12 (stereo not drawn)	Staphylococcus aureus	microbial killing	ATCC33591 MRSA	drug-resistant strain	–	MBC	5 µg/mL (≈ 11.3 µM)
